Published values of several laboratories.
Compare with care: the assays were run in different laboratories. ± gives the spread as reported.
CatSper channel complex: CatSper channel complex (Homo sapiens, UniProt Q7RTX7+Q86XQ3+Q8NEC5+Q96P56)
UniProt Q86XQ3, sequence (whole entry, looked up): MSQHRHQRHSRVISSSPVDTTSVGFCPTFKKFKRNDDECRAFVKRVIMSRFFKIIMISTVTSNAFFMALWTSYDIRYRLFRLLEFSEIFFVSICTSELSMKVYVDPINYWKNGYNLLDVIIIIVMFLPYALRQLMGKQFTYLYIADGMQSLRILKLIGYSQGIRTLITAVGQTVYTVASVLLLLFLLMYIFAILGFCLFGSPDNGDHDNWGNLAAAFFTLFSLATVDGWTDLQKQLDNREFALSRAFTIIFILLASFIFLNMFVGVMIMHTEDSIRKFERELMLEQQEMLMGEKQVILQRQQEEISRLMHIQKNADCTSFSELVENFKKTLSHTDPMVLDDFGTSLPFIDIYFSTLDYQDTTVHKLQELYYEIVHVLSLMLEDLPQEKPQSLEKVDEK
UniProt Q96P56, sequence (whole entry, looked up): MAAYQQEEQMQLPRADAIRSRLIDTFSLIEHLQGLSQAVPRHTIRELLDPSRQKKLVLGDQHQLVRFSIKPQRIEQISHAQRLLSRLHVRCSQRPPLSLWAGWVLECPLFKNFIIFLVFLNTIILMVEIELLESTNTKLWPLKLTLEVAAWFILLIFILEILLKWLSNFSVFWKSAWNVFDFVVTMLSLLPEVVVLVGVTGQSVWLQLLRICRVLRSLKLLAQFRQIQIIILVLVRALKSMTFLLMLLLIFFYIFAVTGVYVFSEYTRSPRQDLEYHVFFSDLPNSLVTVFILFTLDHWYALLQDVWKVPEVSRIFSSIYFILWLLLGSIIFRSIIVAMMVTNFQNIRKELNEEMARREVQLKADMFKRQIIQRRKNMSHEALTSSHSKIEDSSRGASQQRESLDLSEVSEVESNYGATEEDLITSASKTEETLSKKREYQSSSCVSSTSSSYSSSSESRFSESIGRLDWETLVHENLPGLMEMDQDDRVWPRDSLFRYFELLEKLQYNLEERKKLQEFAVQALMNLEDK
UniProt Q7RTX7, sequence (whole entry, looked up): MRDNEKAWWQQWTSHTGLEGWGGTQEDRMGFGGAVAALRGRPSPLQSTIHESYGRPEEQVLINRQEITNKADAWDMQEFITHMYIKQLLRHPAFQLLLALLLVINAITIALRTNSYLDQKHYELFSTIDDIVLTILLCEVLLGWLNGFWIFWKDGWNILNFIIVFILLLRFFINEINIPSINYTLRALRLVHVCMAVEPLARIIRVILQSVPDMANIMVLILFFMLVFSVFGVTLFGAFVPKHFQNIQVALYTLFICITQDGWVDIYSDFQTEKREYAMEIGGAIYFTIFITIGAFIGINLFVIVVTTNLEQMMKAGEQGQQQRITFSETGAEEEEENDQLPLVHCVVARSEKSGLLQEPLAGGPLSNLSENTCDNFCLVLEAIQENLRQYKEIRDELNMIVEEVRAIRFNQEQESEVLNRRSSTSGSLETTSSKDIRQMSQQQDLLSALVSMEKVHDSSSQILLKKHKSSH
UniProt Q8NEC5, sequence (whole entry, looked up): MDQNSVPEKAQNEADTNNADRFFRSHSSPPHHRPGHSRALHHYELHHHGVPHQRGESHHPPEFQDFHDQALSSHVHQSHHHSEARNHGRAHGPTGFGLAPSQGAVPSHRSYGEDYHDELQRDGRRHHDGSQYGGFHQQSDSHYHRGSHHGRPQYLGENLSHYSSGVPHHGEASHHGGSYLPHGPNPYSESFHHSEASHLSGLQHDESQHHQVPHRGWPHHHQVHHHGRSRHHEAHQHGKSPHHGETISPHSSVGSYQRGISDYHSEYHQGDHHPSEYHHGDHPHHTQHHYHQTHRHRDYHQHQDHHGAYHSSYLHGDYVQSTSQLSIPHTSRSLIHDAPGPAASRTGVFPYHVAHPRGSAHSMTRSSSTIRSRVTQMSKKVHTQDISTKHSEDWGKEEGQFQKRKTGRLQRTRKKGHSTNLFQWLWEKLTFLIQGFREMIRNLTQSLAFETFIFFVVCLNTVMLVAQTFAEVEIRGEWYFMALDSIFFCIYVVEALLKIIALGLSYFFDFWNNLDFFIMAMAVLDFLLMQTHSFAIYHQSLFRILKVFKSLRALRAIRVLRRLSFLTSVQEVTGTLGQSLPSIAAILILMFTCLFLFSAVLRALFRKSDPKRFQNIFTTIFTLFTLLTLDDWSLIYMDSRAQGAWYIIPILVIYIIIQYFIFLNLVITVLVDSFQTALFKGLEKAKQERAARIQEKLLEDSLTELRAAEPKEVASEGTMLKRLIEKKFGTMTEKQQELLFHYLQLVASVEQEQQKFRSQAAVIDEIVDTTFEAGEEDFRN
BCHE: Cholinesterase (BCHE, Homo sapiens, UniProt P06276)
UniProt P06276, sequence (whole entry, looked up): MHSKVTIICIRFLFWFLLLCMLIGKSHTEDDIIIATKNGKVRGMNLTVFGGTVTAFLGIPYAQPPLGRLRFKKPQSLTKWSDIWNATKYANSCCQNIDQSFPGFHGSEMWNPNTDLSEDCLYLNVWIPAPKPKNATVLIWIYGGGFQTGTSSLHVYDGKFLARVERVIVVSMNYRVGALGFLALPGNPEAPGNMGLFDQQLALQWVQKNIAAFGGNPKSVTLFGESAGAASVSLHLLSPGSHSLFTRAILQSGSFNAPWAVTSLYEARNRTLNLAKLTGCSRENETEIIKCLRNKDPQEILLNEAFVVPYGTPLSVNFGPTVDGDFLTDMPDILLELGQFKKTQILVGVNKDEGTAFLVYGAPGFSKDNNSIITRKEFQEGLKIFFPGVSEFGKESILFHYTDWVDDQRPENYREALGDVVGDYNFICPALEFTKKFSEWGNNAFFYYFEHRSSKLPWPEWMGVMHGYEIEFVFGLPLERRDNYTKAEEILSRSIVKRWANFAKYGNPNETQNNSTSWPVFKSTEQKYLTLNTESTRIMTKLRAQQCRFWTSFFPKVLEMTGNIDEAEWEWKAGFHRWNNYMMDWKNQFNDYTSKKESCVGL
GABA-A receptor; alpha-1/beta-2/gamma-2: GABA-A receptor; alpha-1/beta-2/gamma-2 (Rattus norvegicus, UniProt P18508+P62813+P63138)
UniProt P18508, sequence (whole entry, looked up): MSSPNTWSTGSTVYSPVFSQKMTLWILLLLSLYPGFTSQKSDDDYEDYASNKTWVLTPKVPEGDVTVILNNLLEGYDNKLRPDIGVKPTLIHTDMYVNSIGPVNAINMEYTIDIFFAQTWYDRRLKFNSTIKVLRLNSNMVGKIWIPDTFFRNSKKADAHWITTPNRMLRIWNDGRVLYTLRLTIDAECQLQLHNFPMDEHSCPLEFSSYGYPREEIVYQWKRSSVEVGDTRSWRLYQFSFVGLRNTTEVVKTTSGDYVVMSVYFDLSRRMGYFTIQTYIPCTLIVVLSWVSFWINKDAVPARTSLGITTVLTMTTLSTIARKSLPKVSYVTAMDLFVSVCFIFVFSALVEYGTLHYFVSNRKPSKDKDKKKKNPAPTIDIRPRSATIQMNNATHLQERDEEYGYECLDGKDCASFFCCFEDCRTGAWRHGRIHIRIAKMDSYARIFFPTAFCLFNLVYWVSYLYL
UniProt P63138, sequence (whole entry, looked up): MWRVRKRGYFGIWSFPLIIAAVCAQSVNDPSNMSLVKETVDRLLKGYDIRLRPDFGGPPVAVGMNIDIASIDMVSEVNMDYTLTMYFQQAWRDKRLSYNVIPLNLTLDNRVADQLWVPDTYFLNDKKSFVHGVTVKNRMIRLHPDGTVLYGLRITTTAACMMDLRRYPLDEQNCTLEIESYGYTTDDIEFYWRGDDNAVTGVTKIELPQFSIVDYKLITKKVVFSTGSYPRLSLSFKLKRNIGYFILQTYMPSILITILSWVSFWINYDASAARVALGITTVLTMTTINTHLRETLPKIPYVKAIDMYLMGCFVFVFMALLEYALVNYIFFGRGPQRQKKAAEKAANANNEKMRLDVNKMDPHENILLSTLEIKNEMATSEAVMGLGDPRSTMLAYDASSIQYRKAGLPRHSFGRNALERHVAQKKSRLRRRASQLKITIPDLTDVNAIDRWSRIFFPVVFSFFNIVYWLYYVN
UniProt P62813, sequence (whole entry, looked up): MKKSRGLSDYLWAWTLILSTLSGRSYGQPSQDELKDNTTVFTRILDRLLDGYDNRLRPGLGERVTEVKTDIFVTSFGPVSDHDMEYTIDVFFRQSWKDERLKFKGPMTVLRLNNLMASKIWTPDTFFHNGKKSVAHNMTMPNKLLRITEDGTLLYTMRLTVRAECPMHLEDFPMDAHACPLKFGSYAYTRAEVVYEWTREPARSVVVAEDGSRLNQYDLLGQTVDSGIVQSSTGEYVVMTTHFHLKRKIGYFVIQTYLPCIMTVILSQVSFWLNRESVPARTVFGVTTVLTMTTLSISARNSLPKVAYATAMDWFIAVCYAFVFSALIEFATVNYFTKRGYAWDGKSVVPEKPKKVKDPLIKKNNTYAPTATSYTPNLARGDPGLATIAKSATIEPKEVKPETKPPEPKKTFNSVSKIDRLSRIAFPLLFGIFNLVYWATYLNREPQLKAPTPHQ
Voltage-gated sodium channel: Voltage-gated sodium channel (Musca domestica, UniProt Q25439)
UniProt P08173, sequence (whole entry, looked up): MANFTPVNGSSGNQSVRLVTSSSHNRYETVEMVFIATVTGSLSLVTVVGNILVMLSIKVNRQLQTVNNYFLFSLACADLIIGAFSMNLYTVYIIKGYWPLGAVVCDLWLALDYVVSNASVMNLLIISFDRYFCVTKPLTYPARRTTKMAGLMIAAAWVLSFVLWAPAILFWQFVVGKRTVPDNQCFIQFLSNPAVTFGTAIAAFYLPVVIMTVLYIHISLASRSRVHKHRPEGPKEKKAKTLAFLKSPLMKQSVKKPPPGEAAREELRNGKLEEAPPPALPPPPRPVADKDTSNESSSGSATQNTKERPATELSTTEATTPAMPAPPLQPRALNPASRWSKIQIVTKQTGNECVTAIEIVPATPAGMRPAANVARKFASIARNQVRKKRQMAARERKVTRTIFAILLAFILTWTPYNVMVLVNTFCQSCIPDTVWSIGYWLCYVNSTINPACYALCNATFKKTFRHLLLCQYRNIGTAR
UniProt P29275, sequence (whole entry, looked up): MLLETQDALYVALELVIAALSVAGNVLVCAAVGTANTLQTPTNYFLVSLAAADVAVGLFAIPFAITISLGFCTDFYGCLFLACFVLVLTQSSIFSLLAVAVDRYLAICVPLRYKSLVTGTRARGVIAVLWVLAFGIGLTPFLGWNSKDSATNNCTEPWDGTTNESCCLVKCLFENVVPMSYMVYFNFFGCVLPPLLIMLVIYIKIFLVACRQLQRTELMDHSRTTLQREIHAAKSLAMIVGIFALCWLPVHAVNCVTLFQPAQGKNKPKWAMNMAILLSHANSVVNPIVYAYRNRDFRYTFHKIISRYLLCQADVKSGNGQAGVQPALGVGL

| Structure (SMILES) | target | test | system | setting | endpoint | value |
| --- | --- | --- | --- | --- | --- | --- |
| C=C(C)[C@@H]1CCC(C)=C[C@H]1c1c(O)cc(CCCCC)cc1O | CatSper channel complex | intracellular Ca2+ increase, agonist, Fluo-4 fluorimetry | human sperm | – | EC50 | 1170 ± 1170 nM |
| O[C@@](Cc1ncc(CC2(C(F)(F)F)CC2)[nH]1)(c1ccc(-n2cccn2)cc1)C(F)(F)F | BCHE | inhibitor | – | with Triton | IC50 | 14000 ± 5500 nM |
| C=C(C)[C@@H]1CCC(C(=O)O)=C[C@H]1c1c(O)cc(CCCCC)cc1O | CatSper channel complex | intracellular Ca2+ increase, agonist, Fluo-4 fluorimetry | human sperm | – | EC50 | 1820 ± 1340 nM |
| NCc1cc(=O)[nH]o1 | GABA-A receptor; alpha-1/beta-2/gamma-2 | chloride current, agonist, whole-cell patch clamp | HEK293 expressing GABAA | 30 s | EC50 | 180 nM |
| CC1(C)[C@H](C(=O)O[C@H](C#N)c2cccc(Oc3ccccc3)c2)[C@@H]1C=C(Br)Br | Voltage-gated sodium channel | membrane potential, activator, FLIPR | HEK293 | – | EC50 | 5.25 nM |
| Clc1cc2c(cc1Cl)Oc1cc(Cl)c(Cl)cc1O2 | Ahr (Mus musculus, UniProt P30561) | agonist | – | – | EC50 | 0.13 ± 0.03 nM |
| C[C@@H]1NC(=O)N[C@@H]1CCCCCC(=O)N1CCN(C(=O)c2ccc(/C=C/c3n[nH]c4ccc(-c5ccc(S(=O)(=O)F)cc5)cc34)cc2)CC1 | ABL1 (Homo sapiens, UniProt P00519) | covalent labeling, streptavidin Western blot | recombinant protein | 1 h | EC50 | 2900 nM |
| O=C(NCCCNc1nc(Nc2cccc(CN3CCOCC3)c2)ncc1C1CC1)C1CCC1 | BCHE | inhibitor, fluorometric | – | – | IC50 | 2640 ± 363 nM |
| CC[C@H](C)[C@H]1O[C@]2(C=C[C@@H]1C)C[C@@H]1C[C@@H](C/C=C(\C)[C@@H](O[C@H]3C[C@H](OC)[C@@H](O[C@H]4C[C@H](OC)[C@@H](O)[C@H](C)O4)[C@H](C)O3)[C@@H](C)/C=C/C=C3\CO[C@@H]4[C@H](O)C(C)=C[C@@H](C(=O)O1)[C@]34O)O2 | GABA-A receptor; alpha-1/beta-2/gamma-2 | membrane potential, agonist, QP-DHM fluorescence | HEK293 expressing GABAA | – | EC50 | 1300 nM |
| C[C@]12CC[C@H]3[C@@H](CCC4=CC(=O)CC[C@@]43C)[C@@H]1[C@H](O)C[C@@H]2O | Androgen receptor (AR, Homo sapiens, UniProt P10275) | cell-based | – | – | EC50 | 160000 nM |
| COc1cc(C(=O)N2CC[C@@H](O)[C@@H](N)C2)cc2nc(-c3cc4ccccc4n3CC3CC3)n(C)c12 | DRD2 (Homo sapiens, UniProt P14416) | agonist, GTPγS binding | – | – | EC50 | > 100000 nM |
| Cc1cc(N2CCNCC2)nc2ccccc12 | CHRM4 (Homo sapiens, UniProt P08173) | ERK1/2 phosphorylation, agonist | CHO cells | – | EC50 | > 20000 nM |
| CC1(C)[C@H](C=C(Cl)Cl)[C@H]1C(=O)OCc1c(F)c(F)cc(F)c1F | Voltage-gated sodium channel | membrane potential, activator, FLIPR | HEK293 | – | EC50 | 1780 nM |
| CCCCCCCCCCCCCC(=O)O[C@@H]1[C@@H](C)[C@@]2(O)[C@@H](C=C(CO)C[C@]3(O)C(=O)C(C)=C[C@@H]23)[C@@H]2C(C)(C)[C@]12OC(C)=O | ADORA2B (Homo sapiens, UniProt P29275) | cAMP accumulation, agonist | HEK293 expressing A2B receptor | 20 min | EC50 | 42.8 ± 12.3 nM |
| CC1(C)C(C=C(Cl)Cl)C1C(=O)OC(C#N)c1cccc(Oc2ccccc2)c1 (stereo not shown) | Voltage-gated sodium channel | membrane potential, activator, FLIPR | HEK293 | – | EC50 | 38.9 nM |
| C[N+](C)(C)CCO | Flvcr2 (Mus musculus, UniProt Q91X85) | choline uptake, isotopic dilution | proteoliposomes | – | EC50 | 33 nM |

For quick reference, copied from above:
| Structure (SMILES) | target | test | system | setting | endpoint | value |
| --- | --- | --- | --- | --- | --- | --- |
| CCCCCCCCCCCCCC(=O)O[C@@H]1[C@@H](C)[C@@]2(O)[C@@H](C=C(CO)C[C@]3(O)C(=O)C(C)=C[C@@H]23)[C@@H]2C(C)(C)[C@]12OC(C)=O | ADORA2B (Homo sapiens, UniProt P29275) | cAMP accumulation, agonist | HEK293 expressing A2B receptor | 20 min | EC50 | 42.8 ± 12.3 nM |
| Clc1cc2c(cc1Cl)Oc1cc(Cl)c(Cl)cc1O2 | Ahr (Mus musculus, UniProt P30561) | agonist | – | – | EC50 | 0.13 ± 0.03 nM |
| C=C(C)[C@@H]1CCC(C)=C[C@H]1c1c(O)cc(CCCCC)cc1O | CatSper channel complex | intracellular Ca2+ increase, agonist, Fluo-4 fluorimetry | human sperm | – | EC50 | 1170 ± 1170 nM |
